Assay results gathered from unrelated publications.
Each line is one published result; not all experiments were run side by side. ± marks the error that the study gave.
G-protein coupled receptor 39: G-protein coupled receptor 39 (Mus musculus, UniProt Q5U431)
Sequence of UniProt Q5U431 (whole entry, looked up): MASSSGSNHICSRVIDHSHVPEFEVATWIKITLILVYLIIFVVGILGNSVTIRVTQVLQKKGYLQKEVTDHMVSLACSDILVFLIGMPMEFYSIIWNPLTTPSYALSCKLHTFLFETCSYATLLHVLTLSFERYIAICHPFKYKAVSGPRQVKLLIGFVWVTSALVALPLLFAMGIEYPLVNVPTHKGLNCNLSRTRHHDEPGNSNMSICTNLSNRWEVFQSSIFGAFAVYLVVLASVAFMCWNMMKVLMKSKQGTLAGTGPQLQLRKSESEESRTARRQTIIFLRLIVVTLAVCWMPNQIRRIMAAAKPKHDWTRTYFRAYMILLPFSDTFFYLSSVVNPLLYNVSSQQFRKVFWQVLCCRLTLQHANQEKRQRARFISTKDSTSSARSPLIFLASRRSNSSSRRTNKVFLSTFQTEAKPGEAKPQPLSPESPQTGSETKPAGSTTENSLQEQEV
Voltage-gated sodium channel: Voltage-gated sodium channel (Musca domestica, UniProt Q25439)
Cnr2: Cannabinoid receptor 2 (Cnr2, Mus musculus, UniProt P47936)
Sequence of UniProt P47936 (whole entry, looked up): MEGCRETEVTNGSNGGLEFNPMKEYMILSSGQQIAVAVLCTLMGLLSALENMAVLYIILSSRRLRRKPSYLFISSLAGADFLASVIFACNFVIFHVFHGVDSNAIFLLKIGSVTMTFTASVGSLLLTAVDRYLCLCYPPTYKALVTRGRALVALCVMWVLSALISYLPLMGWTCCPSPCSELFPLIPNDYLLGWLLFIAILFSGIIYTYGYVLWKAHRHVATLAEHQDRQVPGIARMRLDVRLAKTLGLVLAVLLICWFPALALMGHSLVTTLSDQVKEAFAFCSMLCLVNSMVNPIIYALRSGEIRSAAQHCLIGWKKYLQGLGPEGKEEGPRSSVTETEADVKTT
Sequence of UniProt Q704Y3 (whole entry, unmodified, looked up): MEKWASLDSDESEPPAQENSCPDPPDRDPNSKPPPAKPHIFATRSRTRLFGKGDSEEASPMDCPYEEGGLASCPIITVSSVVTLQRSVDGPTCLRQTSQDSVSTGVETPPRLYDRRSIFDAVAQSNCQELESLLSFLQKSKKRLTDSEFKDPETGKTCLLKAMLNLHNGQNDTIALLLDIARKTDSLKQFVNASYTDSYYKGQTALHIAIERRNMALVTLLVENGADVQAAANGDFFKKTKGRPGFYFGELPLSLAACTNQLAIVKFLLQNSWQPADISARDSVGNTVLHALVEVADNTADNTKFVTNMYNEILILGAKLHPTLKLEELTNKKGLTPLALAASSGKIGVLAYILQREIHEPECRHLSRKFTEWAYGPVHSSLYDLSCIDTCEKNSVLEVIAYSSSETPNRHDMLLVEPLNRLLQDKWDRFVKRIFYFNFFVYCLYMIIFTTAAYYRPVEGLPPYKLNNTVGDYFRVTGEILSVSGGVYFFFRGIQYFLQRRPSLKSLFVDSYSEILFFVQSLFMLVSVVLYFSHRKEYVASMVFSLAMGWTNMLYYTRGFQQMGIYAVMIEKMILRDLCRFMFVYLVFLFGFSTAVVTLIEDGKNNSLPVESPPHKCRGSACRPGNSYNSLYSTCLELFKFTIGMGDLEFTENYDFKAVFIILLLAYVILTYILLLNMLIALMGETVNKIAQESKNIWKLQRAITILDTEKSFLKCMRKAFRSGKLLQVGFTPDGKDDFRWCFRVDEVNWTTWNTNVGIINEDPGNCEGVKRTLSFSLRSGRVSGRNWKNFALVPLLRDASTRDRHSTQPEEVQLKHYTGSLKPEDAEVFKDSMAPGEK
Sequence of UniProt O88457 (whole entry, looked up): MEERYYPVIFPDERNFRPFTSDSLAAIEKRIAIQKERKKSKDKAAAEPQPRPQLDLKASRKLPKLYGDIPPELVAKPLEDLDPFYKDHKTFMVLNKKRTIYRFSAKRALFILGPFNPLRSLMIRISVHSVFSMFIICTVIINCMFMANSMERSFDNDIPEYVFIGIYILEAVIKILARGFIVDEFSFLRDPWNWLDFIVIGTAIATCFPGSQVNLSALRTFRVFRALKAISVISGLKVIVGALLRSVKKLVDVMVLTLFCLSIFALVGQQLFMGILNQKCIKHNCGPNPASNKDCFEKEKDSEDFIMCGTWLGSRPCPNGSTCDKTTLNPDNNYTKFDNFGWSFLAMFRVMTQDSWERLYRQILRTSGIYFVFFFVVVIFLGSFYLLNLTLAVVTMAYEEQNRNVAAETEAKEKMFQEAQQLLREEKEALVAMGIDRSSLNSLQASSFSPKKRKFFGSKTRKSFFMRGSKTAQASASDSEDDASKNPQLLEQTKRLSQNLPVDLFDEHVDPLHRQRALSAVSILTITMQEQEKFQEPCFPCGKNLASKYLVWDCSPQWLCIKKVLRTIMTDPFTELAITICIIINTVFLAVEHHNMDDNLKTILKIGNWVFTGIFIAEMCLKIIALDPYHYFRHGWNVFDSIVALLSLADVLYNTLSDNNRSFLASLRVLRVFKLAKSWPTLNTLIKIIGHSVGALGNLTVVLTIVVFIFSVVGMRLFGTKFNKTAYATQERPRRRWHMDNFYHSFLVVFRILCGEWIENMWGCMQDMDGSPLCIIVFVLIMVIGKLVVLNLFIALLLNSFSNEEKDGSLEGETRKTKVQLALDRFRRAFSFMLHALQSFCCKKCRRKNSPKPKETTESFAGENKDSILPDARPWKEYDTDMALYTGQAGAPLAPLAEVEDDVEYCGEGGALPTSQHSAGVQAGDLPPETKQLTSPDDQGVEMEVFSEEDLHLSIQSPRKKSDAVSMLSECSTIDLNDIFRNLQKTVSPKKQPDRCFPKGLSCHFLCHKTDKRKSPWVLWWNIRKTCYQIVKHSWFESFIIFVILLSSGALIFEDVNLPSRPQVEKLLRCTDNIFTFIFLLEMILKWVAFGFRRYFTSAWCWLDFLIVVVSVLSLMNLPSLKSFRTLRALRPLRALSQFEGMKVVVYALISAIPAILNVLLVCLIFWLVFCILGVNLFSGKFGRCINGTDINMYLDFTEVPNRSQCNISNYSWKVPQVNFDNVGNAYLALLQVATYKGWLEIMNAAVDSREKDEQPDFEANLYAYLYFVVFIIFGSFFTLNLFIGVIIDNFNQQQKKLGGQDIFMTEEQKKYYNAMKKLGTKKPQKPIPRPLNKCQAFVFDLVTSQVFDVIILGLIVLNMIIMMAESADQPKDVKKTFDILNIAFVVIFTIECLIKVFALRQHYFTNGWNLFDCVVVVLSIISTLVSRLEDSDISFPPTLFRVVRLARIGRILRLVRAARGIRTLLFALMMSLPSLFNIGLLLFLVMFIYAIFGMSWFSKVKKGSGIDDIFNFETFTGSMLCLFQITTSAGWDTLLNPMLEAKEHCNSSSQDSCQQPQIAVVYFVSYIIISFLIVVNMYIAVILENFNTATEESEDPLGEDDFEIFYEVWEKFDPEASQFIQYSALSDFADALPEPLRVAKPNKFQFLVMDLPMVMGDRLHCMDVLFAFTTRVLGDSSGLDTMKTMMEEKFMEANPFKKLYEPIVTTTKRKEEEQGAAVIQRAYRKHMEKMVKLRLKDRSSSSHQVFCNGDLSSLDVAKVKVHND
Sequence of UniProt P41143 (whole entry, unmodified, looked up): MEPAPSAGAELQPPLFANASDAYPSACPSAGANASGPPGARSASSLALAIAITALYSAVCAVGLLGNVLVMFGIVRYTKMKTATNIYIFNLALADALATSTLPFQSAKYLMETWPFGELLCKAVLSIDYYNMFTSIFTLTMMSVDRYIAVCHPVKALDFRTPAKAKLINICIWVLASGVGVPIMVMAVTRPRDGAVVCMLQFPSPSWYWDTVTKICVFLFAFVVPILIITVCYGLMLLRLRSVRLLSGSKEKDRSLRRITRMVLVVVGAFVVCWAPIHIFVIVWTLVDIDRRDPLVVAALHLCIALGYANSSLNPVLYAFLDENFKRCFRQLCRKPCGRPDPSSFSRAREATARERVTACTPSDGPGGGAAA
Sequence of UniProt P28335 (whole entry, looked up): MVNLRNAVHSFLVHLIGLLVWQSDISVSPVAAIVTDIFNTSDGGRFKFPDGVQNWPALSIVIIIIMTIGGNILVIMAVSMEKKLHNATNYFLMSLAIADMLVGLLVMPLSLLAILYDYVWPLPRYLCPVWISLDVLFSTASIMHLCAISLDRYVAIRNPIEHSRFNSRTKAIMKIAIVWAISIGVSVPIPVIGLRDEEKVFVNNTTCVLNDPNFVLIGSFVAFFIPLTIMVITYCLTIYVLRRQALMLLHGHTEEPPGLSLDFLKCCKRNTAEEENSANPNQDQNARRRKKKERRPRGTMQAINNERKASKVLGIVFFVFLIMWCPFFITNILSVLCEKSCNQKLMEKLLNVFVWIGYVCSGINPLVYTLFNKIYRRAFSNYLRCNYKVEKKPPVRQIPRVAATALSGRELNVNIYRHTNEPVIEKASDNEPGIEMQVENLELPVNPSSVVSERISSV
Sequence of UniProt P32245 (whole entry, looked up): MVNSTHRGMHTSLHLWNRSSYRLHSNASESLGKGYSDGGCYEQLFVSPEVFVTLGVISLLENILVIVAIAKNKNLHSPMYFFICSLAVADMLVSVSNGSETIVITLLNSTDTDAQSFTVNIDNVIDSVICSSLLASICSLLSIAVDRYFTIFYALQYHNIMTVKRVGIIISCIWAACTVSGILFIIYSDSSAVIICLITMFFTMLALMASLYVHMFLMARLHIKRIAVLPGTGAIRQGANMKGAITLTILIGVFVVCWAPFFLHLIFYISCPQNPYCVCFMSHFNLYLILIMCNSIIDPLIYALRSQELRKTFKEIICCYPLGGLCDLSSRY
Sequence of UniProt P55317 (whole entry, looked up): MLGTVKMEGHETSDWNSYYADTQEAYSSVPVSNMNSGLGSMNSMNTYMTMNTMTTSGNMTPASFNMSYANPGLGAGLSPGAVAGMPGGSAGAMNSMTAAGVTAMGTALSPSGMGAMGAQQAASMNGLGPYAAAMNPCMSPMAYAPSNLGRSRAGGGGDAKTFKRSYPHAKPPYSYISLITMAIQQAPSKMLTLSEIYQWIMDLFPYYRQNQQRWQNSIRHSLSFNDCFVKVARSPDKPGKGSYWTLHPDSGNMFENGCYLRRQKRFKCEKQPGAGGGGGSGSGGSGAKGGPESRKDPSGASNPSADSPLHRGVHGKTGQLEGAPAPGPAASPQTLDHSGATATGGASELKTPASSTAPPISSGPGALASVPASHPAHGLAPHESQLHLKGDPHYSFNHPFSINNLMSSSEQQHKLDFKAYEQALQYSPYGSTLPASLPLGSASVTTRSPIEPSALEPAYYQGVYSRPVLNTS

C=CC(=O)N1[C@H](c2ccc3c(c2)OCO3)c2[nH]c3ccccc3c2C[C@H]1C(=O)N1CCOCC1
EC50 (Hepatocyte nuclear factor 3-alpha (FOXA1, Homo sapiens, UniProt P55317); DNA binding enhancement, activator, NanoBRET): 12000 nM

CCCCC/C=C\C/C=C\C/C=C\C/C=C\CCCC(=O)NCCc1ccc(O)c(O)c1
EC50 (Trpv1 (Mus musculus, UniProt Q704Y3, E571S); ion current, agonist, whole-cell patch clamp; 24 °C, E571S, +80 mV): 120 ± 30 nM

Cc1cc(O)cc(C)c1C[C@H](N)C(=O)N[C@H](CCCNC(=N)N)C(=O)N[C@@H](Cc1ccccc1)C(=O)N(C)CC(=O)N(C)Cc1cc(C(F)(F)F)cc(C(F)(F)F)c1
EC50 (OPRD1 (Homo sapiens, UniProt P41143, D128A); agonist): > 21000 nM

CC(CCC(=O)NCCS(=O)(=O)O)C1CCC2C3C(O)CC4CC(OS(=O)(=O)O)CCC4(C)C3CC(O)C12C (stereo not shown)
EC50 (G-protein coupled receptor 39; calcium signal, agonist, fluorescence): > 200000 nM

O=C(O)CCn1c(=O)oc2cc(Cl)c(Cl)cc21
EC50 (HTR2C (Homo sapiens, UniProt P28335); agonist): > 25100 nM

Cc1ccc(C)c(OCCn2cc(C(=O)O)c3ccccc32)c1
EC50 (CDC42 (Homo sapiens, UniProt P60953, Q61L); GTP binding, activator, flow cytometry bead; EDTA buffer, together with: 100 nM BODIPY-GTP): 355 nM

CC1(C)C(C=C(Cl)Cl)C1C(=O)OCc1c(F)ccc(F)c1F (stereo not shown)
EC50 (Voltage-gated sodium channel; membrane potential, activator, FLIPR; HEK293): 4900 nM

CC(CCC(=O)O)C1CCC2C3C(O)CC4CC(OS(=O)(=O)O)CCC4(C)C3CC(O)C12C (stereo not shown)
EC50 (G-protein coupled receptor 39; calcium signal, agonist, fluorescence): > 200000 nM

CC(C)C[C@H](NC(=O)OCc1ccccc1)C(=O)N[C@H](C=O)C[C@@H]1CCNC1=O
EC50 (Replicase polyprotein 1ab, main protease (rep, Human coronavirus NL63, UniProt P0C6X5); viral replication): > 15000 nM

CC(C)[C@H](NC(=O)[C@@H]1CSSC(C)(C)[C@H](NC(=O)[C@@H](N)CC(=O)O)C(=O)N[C@@H](Cc2ccccc2)C(=O)N[C@@H](Cc2c[nH]c3ccccc23)C(=O)N[C@@H](CCCCN)C(=O)N[C@@H](Cc2ccc(O)cc2)C(=O)N1)C(=O)O
EC50 (UTS2R (Homo sapiens, UniProt Q9UKP6, F271A); IP1 accumulation, agonist, HTRF; HEK293T; 1 h, 37 °C, F271A mutant, 6.48): 3.98 nM

CCCC[C@H](NC(C)=O)C(=O)N[C@H]1CCC(=O)NCCC[C@@H](C(=O)N[C@@H](C(=O)N2CCC[C@@H]2C(N)=O)C(C)C)NC(=O)[C@H](Cc2c[nH]c3ccccc23)NC(=O)[C@H](CCCNC(=N)N)NC(=O)[C@@H](Cc2ccc(F)cc2)NC(=O)[C@H](Cc2c[nH]cn2)NC1=O
EC50 (MC4R (Homo sapiens, UniProt P32245); cAMP, agonist): 0.042 nM

CCN(Cc1ccccc1)C(=O)CCc1nc(CN2CCN(C(=O)Cc3ccc(OC)c(OC)c3)CC2)no1
EC50 (Sodium channel protein type 11 subunit alpha (Scn11a, Rattus norvegicus, UniProt O88457); activation V1/2 shift, activator, whole-cell patch clamp; rat DRG neurons, NaV1.9 current): 162 nM

CCOC(=O)[C@](CC)(CCCSCCOCCOCCNc1ccc([N+](=O)[O-])c2nonc12)NC(=O)c1ccc(C2CC2)c(Cc2ccc(F)cc2)n1
EC50 (Cnr2; cAMP, agonist): 21 nM

COC1C2(O)C(=O)N3C=CC(C)(C)c4[nH]c5ccccc5c4C=C3C(=O)N2C23C(C)C(C)(C)N2c2ccccc2C13O (stereo not shown)
EC50 (uncharacterized protein (Ixodes scapularis, UniProt A0A0N9E2I2); ion current, agonist, two-electrode voltage clamp; Xenopus oocytes; holding potential -100 mV): 3700 nM

CCOC(=O)C(CC)(CC)NC(=O)c1ccc(C2CC2)c(Cc2ccc(F)cc2)n1
EC50 (Cnr2; cAMP, agonist): 1.9 nM

CC1(C)C(C=C(Cl)Cl)C1C(=O)OCc1c(F)c(F)c(F)c(F)c1F (stereo not shown)
EC50 (Voltage-gated sodium channel; membrane potential, activator, FLIPR; HEK293): 741 nM

Some of these lines once more:
C=CC(=O)N1[C@H](c2ccc3c(c2)OCO3)c2[nH]c3ccccc3c2C[C@H]1C(=O)N1CCOCC1
EC50 (Hepatocyte nuclear factor 3-alpha (FOXA1, Homo sapiens, UniProt P55317); DNA binding enhancement, activator, NanoBRET): 12000 nM

COC1C2(O)C(=O)N3C=CC(C)(C)c4[nH]c5ccccc5c4C=C3C(=O)N2C23C(C)C(C)(C)N2c2ccccc2C13O (stereo not shown)
EC50 (uncharacterized protein (Ixodes scapularis, UniProt A0A0N9E2I2); ion current, agonist, two-electrode voltage clamp; Xenopus oocytes; holding potential -100 mV): 3700 nM

CC(CCC(=O)NCCS(=O)(=O)O)C1CCC2C3C(O)CC4CC(OS(=O)(=O)O)CCC4(C)C3CC(O)C12C (stereo not shown)
EC50 (G-protein coupled receptor 39; calcium signal, agonist, fluorescence): > 200000 nM
